Assay results collected from several papers.
Each line is one published result; not all experiments were run side by side. Several values in a cell are separate wells, animals, samples, runs or records. ± marks the error that the study gave.
Target: Mitogen-activated protein kinase 3 (MAPK3, Homo sapiens, UniProt P27361)
Sequence of UniProt P27361 (whole entry, looked up): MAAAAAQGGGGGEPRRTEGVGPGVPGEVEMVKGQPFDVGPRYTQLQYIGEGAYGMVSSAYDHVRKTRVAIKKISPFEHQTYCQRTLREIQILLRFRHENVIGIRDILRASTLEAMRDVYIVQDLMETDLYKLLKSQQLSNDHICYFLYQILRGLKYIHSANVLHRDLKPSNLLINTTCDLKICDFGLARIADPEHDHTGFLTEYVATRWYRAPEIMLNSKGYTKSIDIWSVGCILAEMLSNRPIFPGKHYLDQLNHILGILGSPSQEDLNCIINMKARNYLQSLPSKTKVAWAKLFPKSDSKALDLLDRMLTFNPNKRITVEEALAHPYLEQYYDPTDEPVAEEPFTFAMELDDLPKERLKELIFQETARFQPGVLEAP

With `Nc1[nH]nc2nnc(-c3c(-c4ccccc4)nn4ccccc34)cc12` the kinase activity was 93.2% and 118% and 77.4% (ADP-Glo; 10.5 nM, with: MBP substrate).
The remaining activity of `COc1ccc(F)cc1C(=O)NCc1ccc(-c2nn([C@@H](C)C(F)(F)F)c(N)c2C(N)=O)cc1` is reported as 91.5 ± 0.4% (kinase activity, inhibitor, HotSpot radiometric; 100 nM, with: ATP 10 µM).
`CNc1cc(Oc2cc(C(=O)Nc3cc(N4CCN(C)CC4)cc(C(F)(F)F)c3)ccc2C)ncn1` has an inhibition of -51.7% (Huh-7; 1 µM).
The remaining activity of `C=CC(=O)N1CCC[C@@H](n2nc(-c3ccc(Oc4ccccc4)cc3)c3c(N)ncnc32)C1` is reported as 22.6% (10 µM).
`CNc1ncc2c(/C=C/C(=O)N3CCC(OC)CC3)nn(Cc3cccc(C(F)(F)F)c3)c2n1` gave a remaining activity of 104% (kinase activity, inhibitor; 1 µM; relative to: untreated control).
`C=CC(=O)N1CCC(COCC(=O)N2CCN(c3nc(-c4cnc(N)nc4C(F)F)nc(N4CCOC[C@@H]4C)n3)CC2)CC1` gave a remaining binding of 100% (KINOMEscan; 1 µM).
`c1cnc2ccc(Nc3nc(NC4CC4)c4nc[nH]c4n3)cc2c1` has a remaining activity of 78% (kinase activity, inhibitor, SelectScreen kinase profiling; 1 µM; relative to: control).
For `CC#CC(=O)N1CCC[C@H]1c1nc(-c2ccc(C(=O)Nc3ccccn3)cc2)c2c(N)nccn12`, the remaining activity was 102.4 ± 0.6% (kinase activity, inhibitor, HotSpot radiometric; 100 nM, with: ATP 10 µM).
`[2H]c1cc(C)c(NC(=O)c2cnc(Nc3cc(N4CCCCC4)nc(C)n3)s2)c(Cl)c1` has an inhibition of less than 30% (0.01 µM).
`O=C1NC(=O)/C(=C/c2ccc(-c3ccc(F)cc3O)o2)S1` has a remaining activity of 85% (enzyme activity; 10 µM).

For quick reference, copied from above:
The remaining activity of `C=CC(=O)N1CCC[C@@H](n2nc(-c3ccc(Oc4ccccc4)cc3)c3c(N)ncnc32)C1` is reported as 22.6% (10 µM).
